{"data": "Published values pooled from the literature", "note": "Parts stem from different laboratories: compare values within a part only. Changes are numbered by the printed parent chain."}
{"data": "Block 1", "target": "CCND2, cyclin fold, Cln2 fusion (human)", "method": "yeast growth competition, sequencing", "sample": "yeast", "setting": "weak parent motif", "baseline": "not given", "direction": "higher = stronger binding", "parent": "SLBP docking peptide (human); ARYKRKLLINDFG"}
{"Change": "ARYKRKLLITDFG [N10T]", "normalised enrichment score": 0.0389}
{"Change": "ARKKRKLLINDFG [Y3K]", "normalised enrichment score": -0.00727}
{"Change": "ARYKRKLLINDKG [F12K]", "normalised enrichment score": 0.231}
{"Change": "ARYKRKWLINDFG [L7W]", "normalised enrichment score": -0.233}
{"data": "Block 2", "target": "RNA binding protein fox-1 homolog 2, RRM domain, GST-SBP tag (RBFOX2, Homo sapiens, UniProt O43251-10, residues 100-194)", "method": "RNA Bind-n-Seq", "form": "RNA", "sample": "in vitro", "tested at": "365 nM", "setting": "natural RNA segment, single round, ends assumed", "baseline": "no-protein control", "direction": "higher = stronger binding", "all sequences stand within": "GGGAGUUCUACAGUCCGACGAUC … UGGAAUUCUCGGGUGCCAA"}
{"Sequence": "UUGAUUCUUAACCCCAUGGACUCCUUUCCCUUUCUUCUCUGAAAAAAACUAAUUUAAAUUUGCUUUUCUUUUUUUUAACUGAGUUGAAUUGAGAUUGAUGUGUUUUCACU", "RBNS enrichment (R)": 0.541}
{"Sequence": "AGAAAUCCUUUUUCUUAGGAGUAAAAGCUGGUAAAAGGGGUGACUUCCUGGUUCUGAUCAAAACCAGACCAAACCCUCAUUUCAGCAAAGCCUUGCAAGACACUCCCUUG", "RBNS enrichment (R)": 0.987}
{"Sequence": "CUCUGGGCCUCCUCUAACAGGGGCUGGUGGGCACCAAGAGCCAAUGGAGUAGACCCCUGGCUGGUAAGGGCCAAGUCCCACCGGUUGCUUCUGGGAAGGGGUUUCUAACA", "RBNS enrichment (R)": 0.789}
{"Sequence": "ACGUGUCCAGCCACUGCCUGCUGAGGGCACUGCAGGCUUGCUGGAGCACGCUGGAGCACAUCCUGUCCCAUGAGGGAGGAGGAGGAGCGUUGGCCUAACACUGGCUGUUU", "RBNS enrichment (R)": 0.612}
{"Sequence": "AGGAAACGUCCCUAGGUAGGCUUGGUCAUUUGUGGGUUUUUCCCAGGCCUGACGUUAAGAAUGGUGAGUGCAUAGGCAGAAUGAGGCCUGAAUAAAGAUGGGCUCUGAAA", "RBNS enrichment (R)": 3.13}
{"data": "Block 3", "target": "TAR DNA-binding protein 43, full length, His tag (TARDBP, Homo sapiens, UniProt Q13148, residues 1-414)", "method": "RNA Bind-n-Seq", "form": "RNA", "sample": "in vitro", "tested at": "20 nM", "setting": "6-mer, flanks averaged, single round", "together with": "150 mM KCl", "baseline": "input library", "direction": "higher = stronger binding"}
{"Sequence": "ACCUCA", "6-mer enrichment (R)": 0.594}
{"Sequence": "CUACAA", "6-mer enrichment (R)": 0.634}
{"Sequence": "GUAGGA", "6-mer enrichment (R)": 1.4}
{"Sequence": "AUUAGU", "6-mer enrichment (R)": 0.628}
{"data": "Further values, each from its own experiment"}
{"Molecule": "PhoQ, residues 284 288 289 292 302 303 AGCYAI", "target": "PhoP, residues 12 14 15 18 19 IFFTR (Escherichia coli, UniProt P23836)", "test": "Sort-seq, measured: YFP reporter", "test system": "E. coli", "conditions": "PhoQ-PhoP variant library, together with: 10 µM Mg2+", "how to read": "baseline: high Mg2+ state, higher = stronger signaling", "quantity": "fold induction", "value": 18.1}
{"note": "For quick reference, copied from above (block 2):"}
{"Sequence": "AGAAAUCCUUUUUCUUAGGAGUAAAAGCUGGUAAAAGGGGUGACUUCCUGGUUCUGAUCAAAACCAGACCAAACCCUCAUUUCAGCAAAGCCUUGCAAGACACUCCCUUG", "RBNS enrichment (R)": 0.987}
{"Sequence": "CUCUGGGCCUCCUCUAACAGGGGCUGGUGGGCACCAAGAGCCAAUGGAGUAGACCCCUGGCUGGUAAGGGCCAAGUCCCACCGGUUGCUUCUGGGAAGGGGUUUCUAACA", "RBNS enrichment (R)": 0.789}
